Measured values from different studies.
Compare with care: the assays were run in different laboratories. Values joined by “and” are separate records of one study, mostly repeats; a detail may differ. ± marks the error that the study gave.
ABCG2: Broad substrate specificity ATP-binding cassette transporter ABCG2 (ABCG2, Homo sapiens, UniProt Q9UNQ0)
Chain of UniProt Q9UNQ0 (whole entry, looked up): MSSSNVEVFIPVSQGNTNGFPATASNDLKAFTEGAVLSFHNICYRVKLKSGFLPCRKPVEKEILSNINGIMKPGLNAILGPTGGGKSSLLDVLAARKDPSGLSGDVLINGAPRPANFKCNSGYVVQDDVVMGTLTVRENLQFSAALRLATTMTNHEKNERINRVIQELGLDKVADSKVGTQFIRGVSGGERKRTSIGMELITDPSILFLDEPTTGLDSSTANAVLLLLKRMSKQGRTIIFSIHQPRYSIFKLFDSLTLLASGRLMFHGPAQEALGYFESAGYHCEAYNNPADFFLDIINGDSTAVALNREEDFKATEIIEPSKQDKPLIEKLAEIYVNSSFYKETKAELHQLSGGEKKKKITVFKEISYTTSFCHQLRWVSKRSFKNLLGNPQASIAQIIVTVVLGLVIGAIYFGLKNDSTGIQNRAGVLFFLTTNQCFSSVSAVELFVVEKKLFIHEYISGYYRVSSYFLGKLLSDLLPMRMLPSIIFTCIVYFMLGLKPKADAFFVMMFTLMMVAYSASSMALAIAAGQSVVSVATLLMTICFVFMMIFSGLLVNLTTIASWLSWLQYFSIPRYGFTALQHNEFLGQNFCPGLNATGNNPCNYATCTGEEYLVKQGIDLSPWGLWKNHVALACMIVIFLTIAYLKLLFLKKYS
Chain of UniProt P00760 (whole entry, looked up): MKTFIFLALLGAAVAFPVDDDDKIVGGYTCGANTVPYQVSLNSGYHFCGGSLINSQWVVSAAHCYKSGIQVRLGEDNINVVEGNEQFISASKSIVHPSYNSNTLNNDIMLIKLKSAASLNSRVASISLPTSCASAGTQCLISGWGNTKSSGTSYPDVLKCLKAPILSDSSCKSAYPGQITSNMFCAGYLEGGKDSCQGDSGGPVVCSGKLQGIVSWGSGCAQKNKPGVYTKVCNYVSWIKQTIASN

CCCCCCCCCCN: “intrinsic clearance in vivo” 21 mL/h/g liver (Oncorhynchus mykiss; liver S9 substrate depletion; pooled rainbow trout liver S9; pH 7.8, tested individually).
With O=C(c1ccncc1)N1CCN(c2cc(-c3ccccc3)nc3cc(-c4cccc(Cl)c4)nn23)CC1 the IC50 was 1030 ± 230 nM (ABCG2; JC-1 dye efflux, inhibitor, flow cytometry; ABCG2-overexpressing cells; added: JC-1 1 µM).
With C=C(C[C@H](N)C(=O)O)C(=O)Nc1ccccc1 the EC50 was > 316000 nM (MDA-MB-231; necrosis; 24 h).
The IC50 of O=C(c1ccoc1)N1CCN(c2cc(-c3ccc(F)cc3)nc3cc(-c4ccccc4)nn23)CC1 is reported as 6450 nM (ABCG2; JC-1 dye efflux, inhibitor, flow cytometry; ABCG2-overexpressing cells; added: JC-1 1 µM).
With O=C(O[C@@H]1Cc2c(O)cc(O)cc2O[C@@H]1c1cc(O)c(O)c(O)c1)c1cc(O)c(O)c(O)c1 the cellular retention was 56.8 ± 0.81% (Caco-2; PBS; concentration not given, 1 h, after 3 h loading; relative to: accumulated).
Oc1ccc(/C=C/c2cc(O)cc(O)c2)cc1: “small single spots per fly” 0.53 Spots per Fly and 0.58 Spots per Fly and 0.47 Spots per Fly (Drosophila melanogaster; wing spot test; standard cross, wings; oral, concentration not given).
For Cn1c(-c2ccc(C(N)=O)cc2F)nnc1C(C)(C)Oc1c(F)cc(Cl)cc1F, the Cmax median was 290 ng/mL (healthy young Japanese subjects, plasma; oral, 20 mg once daily, day 18, 14 days dosing).
O=C(c1ccsc1)N1CCN(c2cc(-c3ccccc3)nc3cc(-c4cccc(Cl)c4)nn23)CC1 has an IC50 of 1400 ± 320 nM (ABCG2; JC-1 dye efflux, inhibitor, flow cytometry; ABCG2-overexpressing cells; added: JC-1 1 µM).
Under “intrinsic clearance in vitro”, CCCCCCCCCN is recorded as 0.078 mL/h/mg S9 protein (Oncorhynchus mykiss; liver S9 substrate depletion; pooled rainbow trout liver S9; pH 7.8, tested individually).
For CC[C@H](C)[C@H](NC(=O)[C@H](CCC(=O)O)NC(=O)[C@H](CO)NC(=O)[C@@H](NC(=O)[C@@H](N)CO)C(C)C)C(=O)N[C@@H](CCC(N)=O)C(=O)N[C@@H](CC(C)C)C(=O)N[C@@H](CCSC)C(=O)N[C@@H](Cc1cnc[nH]1)C(=O)N[C@@H](CC(N)=O)C(=O)N[C@@H](CC(C)C)C(=O)NCC(=O)N[C@@H](CCCCN)C(=O)N[C@@H](Cc1cnc[nH]1)C(=O)N[C@@H](CC(C)C)C(=O)N[C@@H](CC(N)=O)C(=O)N[C@@H](CO)C(=O)N[C@@H](CCSC)C(=O)N[C@@H](CCC(=O)O)C(=O)N[C@@H](CCCN=C(N)N)C(=O)N[C@H](C(=O)N[C@@H](CCC(=O)O)C(=O)N[C@@H](Cc1c[nH]c2ccccc12)C(=O)N[C@@H](CC(C)C)C(=O)N[C@@H](CCCN=C(N)N)C(=O)N[C@@H](CCCCN)C(=O)N[C@@H](CCCCN)C(=O)N[C@@H](CC(C)C)C(=O)N[C@@H](CCC(N)=O)C(=O)N[C@@H](CC(=O)O)C(=O)N[C@H](C(=O)N[C@@H](Cc1cnc[nH]1)C(=O)N[C@@H](CC(N)=O)C(=O)N[C@@H](Cc1ccccc1)C(=O)O)C(C)C)C(C)C, “remaining intact compound” read 0% (Serine protease 1 (PRSS1, Bos taurus, UniProt P00760); substrate, HPLC-UV; Tris buffer; 60 min, pH 6.5, 37 °C, added: bovine trypsin 0.5 mg, no SBTI).
CCCCCCCCCCCCCCCCN(C)C: “intrinsic clearance in vitro” 0.691 mL/h/mg S9 protein (Oncorhynchus mykiss; liver S9 substrate depletion; rainbow trout liver S9; tested individually).
NC(=O)C1CCN(c2ccc(C(=O)N3CCc4ccccc43)cn2)C1 (centres unmarked) gave an EC50 of > 25000 nM (Trypanosoma brucei; viability, flow cytometry; bloodstream form; 24 h).
COc1ccccc1-c1cc2nc(-c3ccccc3)cc(N3CCN(C(=O)c4ccoc4)CC3)n2n1 has an IC50 of 450 ± 170 nM (ABCG2; JC-1 dye efflux, inhibitor, flow cytometry; ABCG2-overexpressing cells; added: JC-1 1 µM).
CCCCCCCCCCCCNC — result for “intrinsic clearance in vivo”: 84 mL/h/g liver (Oncorhynchus mykiss; liver S9 substrate depletion; rainbow trout liver S9; tested individually).

Excerpt of the above:
The IC50 of O=C(c1ccoc1)N1CCN(c2cc(-c3ccc(F)cc3)nc3cc(-c4ccccc4)nn23)CC1 is reported as 6450 nM (ABCG2; JC-1 dye efflux, inhibitor, flow cytometry; ABCG2-overexpressing cells; added: JC-1 1 µM).
With O=C(O[C@@H]1Cc2c(O)cc(O)cc2O[C@@H]1c1cc(O)c(O)c(O)c1)c1cc(O)c(O)c(O)c1 the cellular retention was 56.8 ± 0.81% (Caco-2; PBS; concentration not given, 1 h, after 3 h loading; relative to: accumulated).
